Assay results collected from several papers.
± gives the spread as reported.

The IC50 of N=C(N)c1ccc(OCCCCCOc2ccc(C(=N)N)cc2)cc1 is reported as 2.05 ± 1.44 µM (Leishmania tarentolae; viability, resazurin; promastigotes, Schneider's medium; 48 h, 26 °C, added: 6 µM hemin).
The IC50 of Cc1cc(C)cc(Nc2nc(-c3cc(C(=O)Nc4ccccc4)no3)cs2)c1 is reported as greater than 100 µM (Mycobacteroides abscessus; Bamboo; 72 h).
Nc1nc2c(ncn2COCCO)c(=O)[nH]1 gave an IC50 of 1.14 ± 0.2 µM (human alphaherpesvirus 1; viral GFP expression, live cell imaging; Vero, K26, GFP-expressing; peak infection time).
Cc1ccc(C(=O)N(C(=O)c2ccc(C)cc2)C(=S)N2N=C(c3ccc(Br)cc3)CC2c2cccc(F)c2)cc1 (centres unmarked) has an IC50 of 103 ± 7.9 µM (Artemia; cytotoxicity; 24 h).
For O=C(O)c1nc2ccccc2c(=O)n1Cc1cn(-c2cccc(Cl)c2)nn1, the IC50 was 245 µg/mL (Candida tropicalis; microbial growth, broth dilution; ATCC750; 24 h).
With COc1cccc2c1C(=O)c1c(O)c3c(c(O)c1C2=O)C[C@@](O)(C(=O)CO)C[C@@H]3O[C@H]1C[C@H](N)[C@H](O)[C@H](C)O1 the IC50 was 9.8 ± 5.9 µM (Artemia; cytotoxicity; 24 h).
With Cc1ccc(Nc2nc(-c3cc(C(=O)Nc4cc(C)ccn4)no3)cs2)cc1 the IC50 was greater than 100 µM (Mycobacteroides abscessus; Bamboo; 72 h).
For Cc1ccc(-c2c[nH]c(N)n2)cc1, the IC50 was 45 µM (Mycolicibacterium smegmatis; biofilm formation, crystal violet).
Cc1ccc(C(=O)N(C(=O)c2ccc(C)cc2)C(=S)N2N=C(c3ccc(Cl)cc3)CC2c2ccc(Cl)cc2)cc1 (centres unmarked) has an IC50 of 114 ± 11.6 µM (Artemia; cytotoxicity; 24 h).
Cc1ccc(Nc2nc(-c3cc(C(=O)Nc4ccccc4C)no3)cs2)cc1 gave an IC50 of greater than 100 µM (Mycobacteroides abscessus; Bamboo; 72 h).
CS(=N)(=O)Cc1cccc(Nc2cc(NC3CC3)n3ncc(C#N)c3n2)c1 (centres unmarked) has an IC50 of 10 µM (murine hepatitis virus; viral replication; 10 h).
With CCOC(=O)c1nc2ccccc2c(=O)n1Cc1cn(-c2cccc([N+](=O)[O-])c2)nn1 the IC50 was 117 µg/mL (Candida tropicalis; microbial growth, broth dilution; ATCC750; 24 h).
With `Tin mesoporphyrin` the IC50 was 64.1 ± 21.3 µM (Leishmania tarentolae; resazurin viability; promastigotes).
CCCCCOc1ccc(-c2nc(N)[nH]c2C(F)(F)F)cc1 gave an IC50 of less than 10 µM (Mycolicibacterium smegmatis; biofilm).
CCOC(=O)c1nc2ccccc2c(=O)n1Cc1cn(-c2cccc(Cl)c2)nn1 gave an IC50 of 28 µg/mL (Candida tropicalis; growth, broth dilution; ATCC 750; 24 h).
With CCCCc1ccc(-c2c[nH]c(N)n2)cc1 the IC50 was 19.8 µM (Mycolicibacterium smegmatis; biofilm formation, crystal violet).
O=c1c(O)c(-c2cc(O)c(O)c(O)c2)oc2cc(O)cc(O)c12 gave an IC50 of 2.5 ± 0.1 µM (human alphaherpesvirus 1; viral replication; HeLa, F; 24 h).
CCOC(=O)c1nc2ccccc2c(=O)n1Cc1cn(-c2cccc(OC)c2)nn1 has an IC50 of 113 µg/mL (Candida tropicalis; microbial growth, broth dilution; ATCC750; 24 h).
The IC50 of CO[C@H]1/C=C/O[C@@]2(C)Oc3c(C)c(O)c4c(c3C2=O)C2=NC3(CCN(CC(C)C)CC3)NC2=C(NC(=O)/C(C)=C\C=C\[C@H](C)[C@H](O)[C@@H](C)[C@@H](O)[C@@H](C)[C@H](OC(C)=O)[C@@H]1C)C4=O is reported as 9.7 µM (Mycobacteroides abscessus; ATCC 19977; 1:1 CAMHB:human serum).
O=C(O)c1nc2ccccc2c(=O)n1Cc1cn(-c2ccc(F)cc2)nn1 gave an IC50 of 231 µg/mL (Candida tropicalis; microbial growth, broth dilution; ATCC750; 24 h).
With Cc1ccc(Nc2nc(-c3cc(C(=O)Nc4ccc(O)cc4)no3)cs2)cc1 the IC50 was greater than 100 µM (Mycobacteroides abscessus; Bamboo; 72 h).
CCCOc1ccc(-c2nc(N)[nH]c2C(F)(F)F)cc1 gave an IC50 of 17.1 µM (Mycolicibacterium smegmatis; biofilm formation, crystal violet).
With O=C(O)c1nc2ccccc2c(=O)n1Cc1cn(-c2cccc([N+](=O)[O-])c2)nn1 the IC50 was 521 µg/mL (Candida tropicalis; microbial growth, broth dilution; ATCC750; 24 h).
The IC50 of C/C=C1\NC(=O)[C@H]2CSSCC/C=C/[C@H](CC(=O)N[C@H](C(C)C)C(=O)N2)OC(=O)[C@H](C(C)C)NC1=O is reported as roughly 10 µM (Schistosoma mansoni; worm pairing and egg production; adult worms).
For Cc1ccc(Nc2nc(-c3cc(C(=O)Nc4ccccc4)no3)co2)cc1, the IC50 was greater than 100 µM (Mycobacteroides abscessus; Bamboo; 72 h).
The IC50 of OC(Cn1cncn1)(Cn1cncn1)c1ccc(F)cc1F is reported as 8.5 µg/mL (Candida tropicalis; microbial growth, broth dilution; ATCC750; 24 h).
For CCCOc1ccc(-c2c[nH]c(N)n2)cc1, the IC50 was 20.9 µM (Mycolicibacterium smegmatis; biofilm formation, crystal violet).
Cc1ccc(Nc2nc(-c3cc(C(=O)Nc4ccccn4)no3)cs2)cc1O has an IC50 of greater than 100 µM (Mycobacteroides abscessus; Bamboo; 72 h).
CCCCCOc1ccc(-c2c[nH]c(N)n2)cc1 has an IC50 of 12.5 µM (Mycolicibacterium smegmatis; biofilm formation, crystal violet).
CCOC(=O)c1nc2ccccc2c(=O)n1Cc1cn(-c2ccccc2C)nn1 has an IC50 of 191 µg/mL (Candida tropicalis; microbial growth, broth dilution; ATCC750; 24 h).
Cc1ncc(CO)c(/C=N/NC(=O)c2ccncc2)c1O gave an IC50 of greater than 600 µM (Leishmania tarentolae; parasite growth, resazurin; promastigote).
CC(C)=CCC/C(C)=C/CNCCNC1C2CC3CC(C2)CC1C3 (centres unmarked) gave an IC50 of 1 µM (Mycobacterium tuberculosis; growth; H37Rv).

A few entries again:
CCOC(=O)c1nc2ccccc2c(=O)n1Cc1cn(-c2cccc(OC)c2)nn1 has an IC50 of 113 µg/mL (Candida tropicalis; microbial growth, broth dilution; ATCC750; 24 h).
CCCCCOc1ccc(-c2c[nH]c(N)n2)cc1 has an IC50 of 12.5 µM (Mycolicibacterium smegmatis; biofilm formation, crystal violet).
O=c1c(O)c(-c2cc(O)c(O)c(O)c2)oc2cc(O)cc(O)c12 gave an IC50 of 2.5 ± 0.1 µM (human alphaherpesvirus 1; viral replication; HeLa, F; 24 h).
CC(C)=CCC/C(C)=C/CNCCNC1C2CC3CC(C2)CC1C3 (centres unmarked) gave an IC50 of 1 µM (Mycobacterium tuberculosis; growth; H37Rv).
Cc1ccc(Nc2nc(-c3cc(C(=O)Nc4ccccn4)no3)cs2)cc1O has an IC50 of greater than 100 µM (Mycobacteroides abscessus; Bamboo; 72 h).
